Assay results pooled from the literature.
Compare with care: the assays were run in different laboratories. ± gives the spread as reported.

SMILES	target or system	assay	test system	conditions	scale	endpoint	value
C=CC(=O)Nc1cccc(Cn2ncc3cnc(Nc4cnn(CCOC)c4)nc32)c1	TGFBR2 human	binding, KINOMEscan	–	100 nM	lower = stronger binding	percent of control	100%
N=C(N)NCCC[C@@H]1NC(=O)[C@H](CCCNC(=N)N)NC(=O)[C@@H](CCCNC(=N)N)NC(=O)[C@@H](CCCNC(=N)N)NC(=O)[C@@H](C(c2ccccc2)c2ccccc2)NC(=O)[C@H](Cc2c[nH]c3ccccc23)NC(=O)[C@@H](C(c2ccccc2)c2ccccc2)NC1=O	Aspergillus fumigatus	XTT	Af 293	2 × MIC, 24 h, pre-formed biofilm	–	biofilm reduction	69 to 73%
COc1cc(O)ccc1CCC(c1ccc(O)cc1)c1cc2c(c(C)c1O)OC(c1ccc(O)cc1)CC2 (mixture of isomers)	–	–	human blood	0.3 µM, added: A23187	–	LTB4 isomers level	297 ± 112 pg/mL
O=C(N/N=C/c1ccc2c(ccc[n+]2Cc2ccccc2)c1)N/N=C/c1ccc2c(ccc[n+]2Cc2ccccc2)c1	telomeric G4 DNA hybrid-2	FRET melting	–	1 µM, DNA 0.2 µM, added: duplex DNA competitor 10 µM	–	ΔTm	12 ± 1.3 °C
CNS(=O)(=O)Nc1nccc(Cc2c(C)c3ccc(Oc4ncccc4F)cc3oc2=O)c1F	NCI-H838	cell viability	–	7 days	–	IC50	> 1 µM
O=C(N/N=C/c1cc[n+](CC2CC2)c2ccccc12)c1ccc2ccc3ccc(C(=O)N/N=C/c4cc[n+](CC5CC5)c5ccccc45)nc3c2n1	telomeric G4 DNA hybrid-2	FRET melting	–	1 µM, DNA 0.2 µM	–	ΔTm	29.1 ± 0.7 °C
COC1CN([C@H]2CC[C@H]([C@@]3(C)Oc4c(Cl)cc(C(=O)NCc5c(SC)cc(C)[nH]c5=O)c(C)c4O3)CC2)C1	–	RNA-seq, refers to: mouse PALM homolog	mouse, HT-1376 xenograft, whole blood	dose not given, PRC2 target gene	relative to: vehicle	log2 fold change	0.0512
O=C(N/N=C/c1ccc(C[n+]2ccccc2)cc1)c1cncc(C(=O)N/N=C/c2ccc(C[n+]3ccccc3)cc2)n1	telomeric G4 DNA hybrid-2	FRET melting	–	1 µM, DNA 0.2 µM	–	ΔTm	13.7 ± 1.1 °C
FC(F)(F)c1cccc(CNc2nc(NC3CCN(Cc4ccccc4)CC3)c3nc[nH]c3n2)c1	Cryptococcus neoformans	RNA-seq, refers to: ARG2 (CNAG_02802)	wild type	48 µg/mL, 3 h	relative to: untreated wild type	log2 fold change	1.13
C[n+]1ccc(/C=N/NC(=O)c2cccc(C(=O)N/N=C/c3cc[n+](C)c4ccccc34)n2)c2ccccc21	telomeric G4 DNA hybrid-2	FRET melting	–	1 µM, DNA 0.2 µM	–	ΔTm	30.6 ± 0.7 °C
Nc1ncc(-c2cc(-c3cnn(CC(F)(F)F)c3)ncc2F)nc1C(=O)NC1CNCC(F)C1 (centres unmarked)	PFTAIRE2	KINOMEscan competition binding	–	1 µM	relative to: DMSO control	remaining binding	54%
Cc1ncsc1-c1ccc(C(C)NC(=O)C2CC(O)CN2C(=O)C(NC(=O)CCCCCCCCCCN2CCCC(Nc3ncc(Cl)c(Nc4ccccc4S(=O)(=O)C(C)C)n3)C2)C(C)(C)C)cc1 (centres unmarked)	22Rv1	RNA-seq, refers to: PARS2 mRNA	–	concentration not given	relative to: DMSO	log2 fold change	-2.25
C[n+]1cc(/C=N/NC(=O)c2ccc3ccc4ccc(C(=O)N/N=C/c5cc6ccccc6[n+](C)c5)nc4c3n2)cc2ccccc21	telomeric G4 DNA hybrid-2	FRET melting	–	1 µM, DNA 0.2 µM, added: duplex DNA competitor 10 µM	–	ΔTm	25.8 ± 1.7 °C
C=C(NC(=O)c1csc(-c2nc3c(cc2O)-c2nc(cs2)C(=O)NC(C(C)O)C(=O)NC(=C(C)OC)c2nc(cs2)C(=O)NC2c4nc(cs4)C(=O)NC(COC(=O)c4c5c6c(cccc6n4O)COC(=O)C(OC4CC(C)(O)C(N(C)C)C(C)O4)C2OC5)c2nc-3cs2)n1)C(N)=O (centres unmarked)	Staphylococcus aureus	–	ATCC 43300 MRSA	1/2×MIC, 2 h exposure	–	post-antibiotic effect	0.75 ± 0.12 h
c1ccc(-c2n[nH]cc2-c2ccnc3ccccc23)nc1	SAT4 (Candida albicans)	kinase binding, MIB/MS competition	Candida albicans lysate	1 µM	relative to: DMSO	log2 fold change	0.11
CC(C)(C)c1cc(-c2ccc3cccnc3n2)nc(-c2ccc3cccnc3n2)c1.COc1ccncc1.[Cl-].[Cl-].[Ru+2].c1ccc2cc3nc4c5cccnc5c5ncccc5c4nc3cc2c1	B16-F10	resazurin	–	added: light 733 nm, 100 J/cm2	relative to: dark EC50 over light EC50	phototoxicity index	39
Cn1ncc2cc(-c3cncc(Cl)c3N3CCC4(CCNC4=O)CC3)ccc21	LS174T	gene expression, microarray, refers to: KRT14 mRNA	–	concentration not given, 4 h	relative to: untreated cells	log2 fold change	3.12
O=C(O)C(Cc1c[nH]cn1)N1C(=O)c2ccc3c4ccc5c6c(ccc(c7ccc(c2c37)C1=O)c64)C(=O)N(CCN1CCCCC1)C5=O (centres unmarked)	telomerase	enzyme activity, inhibitor, TRAP	cell-free	pH 7.4	–	IC50	3.6 ± 0.2 µM
C[n+]1cc(/C=N/NC(=O)N/N=C/c2cc3ccccc3[n+](C)c2)cc2ccccc21	telomeric G4 DNA hybrid-2	FRET melting	–	1 µM, DNA 0.2 µM	–	ΔTm	7.5 ± 0.2 °C
[Cl-].[Cl-].[Ru+2].c1cc(-c2ccc3cccnc3n2)nc(-c2ccc3cccnc3n2)c1.c1ccc2cc3nc4c5cccnc5c5ncccc5c4nc3cc2c1	B16-F10	resazurin	–	added: light 733 nm, 100 J/cm2	relative to: dark EC50 over light EC50	phototoxicity index	1
CC(C)c1ccc(N(C)c2ccc3c(c2)OCC[C@H]3CNc2cnccc2C(=O)O)cc1	SW837	cell growth or viability, ATP luminescence	–	7 days	–	IC50	≥ 10 µM
CC(=O)[O-].O.O.O.O.[Mn+2].[O-]c1ccc(Br)cc1C=NCCN1CCOCC1	–	FRAP	–	160 µM	–	ferric reducing power	31.6%
C[n+]1ccc(/C=N/NC(=O)c2cccc(C(=O)N/N=C/c3cc[n+](C)c4ccccc34)c2)c2ccccc21	telomeric G4 DNA hybrid-2	FRET melting	–	1 µM, DNA 0.2 µM, added: duplex DNA competitor 10 µM	–	ΔTm	12.8 ± 0.7 °C
C=CC(=O)N1[C@@H](c2ccc3c(c2)OCO3)c2[nH]c3ccccc3c2C[C@H]1C(=O)N1CCN(C)CC1	human cyclin E1 N112C-3xFLAG:CDK2	co-IP with TMT proteomics, refers to: RPS14	–	concentration not given, P62263	relative to: wild type DMSO	relative co-enrichment	99%
C[n+]1ccc(/C=N/NC(=O)c2ccc3ccc4ccc(C(=O)N/N=C/c5cc[n+](C)c6ccccc56)nc4c3n2)c2ccccc21	telomeric G4 DNA hybrid-2	FRET melting	–	1 µM, DNA 0.2 µM	–	ΔTm	29.3 ± 0.9 °C
CN1CCCNC(=O)c2cccc(c2)C(=O)NCCCN(C)CCCNc2cccc3c2C(=O)c2cccc(c2C3=O)NCCC1	SAS	RNA-Seq, refers to: USP25 mRNA	–	1 µM, 6 h	relative to: untreated cells	log2 fold change	-1.15

Some of these lines once more:
SMILES	target or system	assay	test system	conditions	scale	endpoint	value
Cn1ncc2cc(-c3cncc(Cl)c3N3CCC4(CCNC4=O)CC3)ccc21	LS174T	gene expression, microarray, refers to: KRT14 mRNA	–	concentration not given, 4 h	relative to: untreated cells	log2 fold change	3.12
O=C(O)C(Cc1c[nH]cn1)N1C(=O)c2ccc3c4ccc5c6c(ccc(c7ccc(c2c37)C1=O)c64)C(=O)N(CCN1CCCCC1)C5=O (centres unmarked)	telomerase	enzyme activity, inhibitor, TRAP	cell-free	pH 7.4	–	IC50	3.6 ± 0.2 µM
C[n+]1cc(/C=N/NC(=O)N/N=C/c2cc3ccccc3[n+](C)c2)cc2ccccc21	telomeric G4 DNA hybrid-2	FRET melting	–	1 µM, DNA 0.2 µM	–	ΔTm	7.5 ± 0.2 °C
